Experimental data from different studies.
Numbered parts are unrelated; each lists some results of a single study.
Sequence of UniProt P42336 (whole entry, unmodified, looked up): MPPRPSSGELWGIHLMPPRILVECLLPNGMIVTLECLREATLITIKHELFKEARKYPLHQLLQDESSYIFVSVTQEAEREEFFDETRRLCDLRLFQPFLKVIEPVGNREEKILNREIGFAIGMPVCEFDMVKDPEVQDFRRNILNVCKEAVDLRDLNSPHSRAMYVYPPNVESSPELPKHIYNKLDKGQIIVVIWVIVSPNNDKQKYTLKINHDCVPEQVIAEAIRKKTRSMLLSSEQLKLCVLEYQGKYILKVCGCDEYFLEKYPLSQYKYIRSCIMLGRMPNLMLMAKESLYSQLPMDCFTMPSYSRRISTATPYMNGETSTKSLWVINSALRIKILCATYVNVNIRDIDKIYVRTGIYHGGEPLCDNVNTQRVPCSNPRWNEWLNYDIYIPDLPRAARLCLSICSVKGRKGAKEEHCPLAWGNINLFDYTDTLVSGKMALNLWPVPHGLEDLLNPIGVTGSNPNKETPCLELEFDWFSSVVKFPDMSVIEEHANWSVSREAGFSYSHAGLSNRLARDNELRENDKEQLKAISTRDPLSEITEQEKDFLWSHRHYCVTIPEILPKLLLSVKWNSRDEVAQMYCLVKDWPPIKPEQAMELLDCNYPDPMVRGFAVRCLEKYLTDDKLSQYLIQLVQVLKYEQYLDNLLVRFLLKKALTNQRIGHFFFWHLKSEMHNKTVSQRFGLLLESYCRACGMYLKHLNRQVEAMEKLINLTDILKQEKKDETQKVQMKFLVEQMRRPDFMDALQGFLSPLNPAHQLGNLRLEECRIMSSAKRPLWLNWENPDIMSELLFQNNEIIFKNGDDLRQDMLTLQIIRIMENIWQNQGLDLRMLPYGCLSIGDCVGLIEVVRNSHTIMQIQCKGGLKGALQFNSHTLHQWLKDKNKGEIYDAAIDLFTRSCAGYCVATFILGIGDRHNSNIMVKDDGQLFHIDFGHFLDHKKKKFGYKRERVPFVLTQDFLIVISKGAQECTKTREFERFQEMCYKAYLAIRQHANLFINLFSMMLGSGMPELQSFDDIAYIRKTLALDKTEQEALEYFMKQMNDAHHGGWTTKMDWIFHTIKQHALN
Sequence of UniProt Q99683 (whole entry, looked up): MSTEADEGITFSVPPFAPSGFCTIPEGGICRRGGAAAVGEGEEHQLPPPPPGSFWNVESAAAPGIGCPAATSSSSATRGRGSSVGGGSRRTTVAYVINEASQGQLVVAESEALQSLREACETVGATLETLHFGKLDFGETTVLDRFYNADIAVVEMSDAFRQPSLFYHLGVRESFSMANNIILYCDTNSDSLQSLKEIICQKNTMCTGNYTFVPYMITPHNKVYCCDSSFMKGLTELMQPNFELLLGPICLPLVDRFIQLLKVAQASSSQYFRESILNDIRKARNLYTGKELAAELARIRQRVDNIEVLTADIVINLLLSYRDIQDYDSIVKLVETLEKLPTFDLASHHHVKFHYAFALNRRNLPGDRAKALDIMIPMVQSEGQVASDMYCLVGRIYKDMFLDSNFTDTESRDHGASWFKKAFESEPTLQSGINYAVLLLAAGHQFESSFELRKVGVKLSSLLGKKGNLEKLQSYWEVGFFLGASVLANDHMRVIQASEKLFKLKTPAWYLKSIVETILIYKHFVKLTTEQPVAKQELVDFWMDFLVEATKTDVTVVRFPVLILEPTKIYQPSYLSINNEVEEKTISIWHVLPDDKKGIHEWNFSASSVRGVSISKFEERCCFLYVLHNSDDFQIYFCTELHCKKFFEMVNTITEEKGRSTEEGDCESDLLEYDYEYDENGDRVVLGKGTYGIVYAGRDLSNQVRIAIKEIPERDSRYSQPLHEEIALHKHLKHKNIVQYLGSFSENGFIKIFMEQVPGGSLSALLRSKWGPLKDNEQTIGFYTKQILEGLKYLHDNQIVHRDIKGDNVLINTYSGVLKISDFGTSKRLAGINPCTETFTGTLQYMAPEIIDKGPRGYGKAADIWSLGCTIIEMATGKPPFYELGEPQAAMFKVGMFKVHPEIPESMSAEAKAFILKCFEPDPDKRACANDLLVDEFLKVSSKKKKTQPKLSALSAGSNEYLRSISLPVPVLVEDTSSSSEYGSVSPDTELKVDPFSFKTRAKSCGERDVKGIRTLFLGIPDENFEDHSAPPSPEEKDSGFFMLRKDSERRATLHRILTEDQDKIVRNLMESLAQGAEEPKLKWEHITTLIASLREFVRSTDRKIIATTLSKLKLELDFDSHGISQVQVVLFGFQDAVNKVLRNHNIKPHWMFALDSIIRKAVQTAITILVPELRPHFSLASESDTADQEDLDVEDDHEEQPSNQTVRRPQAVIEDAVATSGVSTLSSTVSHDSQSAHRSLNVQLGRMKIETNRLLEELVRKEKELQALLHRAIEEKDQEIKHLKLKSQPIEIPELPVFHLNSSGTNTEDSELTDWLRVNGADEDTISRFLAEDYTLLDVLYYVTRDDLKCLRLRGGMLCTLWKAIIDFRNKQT
Sequence of UniProt P23458 (whole entry, looked up): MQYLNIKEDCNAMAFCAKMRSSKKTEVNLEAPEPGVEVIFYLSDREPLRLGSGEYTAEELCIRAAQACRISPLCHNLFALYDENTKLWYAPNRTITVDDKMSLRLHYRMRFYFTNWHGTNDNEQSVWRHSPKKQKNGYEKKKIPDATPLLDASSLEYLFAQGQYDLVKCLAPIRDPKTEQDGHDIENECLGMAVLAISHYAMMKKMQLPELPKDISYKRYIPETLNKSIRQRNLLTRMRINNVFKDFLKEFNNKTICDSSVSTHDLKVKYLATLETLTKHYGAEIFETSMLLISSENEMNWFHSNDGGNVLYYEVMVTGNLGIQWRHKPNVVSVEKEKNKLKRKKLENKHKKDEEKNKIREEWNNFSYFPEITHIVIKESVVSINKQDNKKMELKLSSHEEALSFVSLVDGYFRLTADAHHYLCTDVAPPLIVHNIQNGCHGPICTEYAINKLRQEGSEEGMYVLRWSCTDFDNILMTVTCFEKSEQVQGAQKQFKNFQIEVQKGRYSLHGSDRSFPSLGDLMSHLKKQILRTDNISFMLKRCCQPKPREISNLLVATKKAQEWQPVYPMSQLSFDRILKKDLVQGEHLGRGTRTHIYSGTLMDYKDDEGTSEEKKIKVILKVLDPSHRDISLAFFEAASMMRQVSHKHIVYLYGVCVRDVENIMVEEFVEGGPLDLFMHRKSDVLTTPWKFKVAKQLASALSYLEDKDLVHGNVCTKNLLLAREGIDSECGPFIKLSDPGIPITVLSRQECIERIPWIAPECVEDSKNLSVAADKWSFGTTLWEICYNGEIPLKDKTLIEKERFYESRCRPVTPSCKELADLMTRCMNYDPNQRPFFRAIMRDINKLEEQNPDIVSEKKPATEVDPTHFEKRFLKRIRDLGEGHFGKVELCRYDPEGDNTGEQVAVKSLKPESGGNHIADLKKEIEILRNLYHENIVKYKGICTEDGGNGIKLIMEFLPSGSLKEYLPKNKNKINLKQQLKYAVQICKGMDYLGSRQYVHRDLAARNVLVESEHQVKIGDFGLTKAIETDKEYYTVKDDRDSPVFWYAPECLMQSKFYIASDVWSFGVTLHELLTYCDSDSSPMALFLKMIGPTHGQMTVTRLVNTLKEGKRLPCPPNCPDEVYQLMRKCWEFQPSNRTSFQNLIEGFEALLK
Sequence of UniProt Q8TDR2 (whole entry, looked up): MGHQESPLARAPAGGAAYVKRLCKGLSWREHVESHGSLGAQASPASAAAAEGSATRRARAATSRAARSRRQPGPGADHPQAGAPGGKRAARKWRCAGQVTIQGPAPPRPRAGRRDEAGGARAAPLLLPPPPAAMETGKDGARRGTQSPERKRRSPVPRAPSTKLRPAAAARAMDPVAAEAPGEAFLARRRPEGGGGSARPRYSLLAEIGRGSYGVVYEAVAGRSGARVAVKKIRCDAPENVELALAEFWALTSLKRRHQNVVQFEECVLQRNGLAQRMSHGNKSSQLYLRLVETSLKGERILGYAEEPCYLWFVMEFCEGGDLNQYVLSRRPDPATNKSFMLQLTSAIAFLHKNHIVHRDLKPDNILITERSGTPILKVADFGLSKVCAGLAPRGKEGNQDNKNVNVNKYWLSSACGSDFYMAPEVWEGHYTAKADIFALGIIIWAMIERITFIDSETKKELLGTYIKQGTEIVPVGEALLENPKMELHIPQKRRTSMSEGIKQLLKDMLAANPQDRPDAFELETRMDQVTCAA
Sequence of UniProt O94768 (whole entry, looked up): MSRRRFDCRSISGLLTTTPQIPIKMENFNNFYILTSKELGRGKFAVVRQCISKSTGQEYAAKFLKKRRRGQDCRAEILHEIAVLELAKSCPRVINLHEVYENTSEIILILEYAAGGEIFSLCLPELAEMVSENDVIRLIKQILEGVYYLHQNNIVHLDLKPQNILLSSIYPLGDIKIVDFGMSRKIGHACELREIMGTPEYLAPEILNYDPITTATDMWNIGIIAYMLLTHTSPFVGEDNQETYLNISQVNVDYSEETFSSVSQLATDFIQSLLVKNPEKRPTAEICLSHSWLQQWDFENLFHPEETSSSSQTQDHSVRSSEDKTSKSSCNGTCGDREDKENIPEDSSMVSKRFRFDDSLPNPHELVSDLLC
Sequence of UniProt P50613 (whole entry, looked up): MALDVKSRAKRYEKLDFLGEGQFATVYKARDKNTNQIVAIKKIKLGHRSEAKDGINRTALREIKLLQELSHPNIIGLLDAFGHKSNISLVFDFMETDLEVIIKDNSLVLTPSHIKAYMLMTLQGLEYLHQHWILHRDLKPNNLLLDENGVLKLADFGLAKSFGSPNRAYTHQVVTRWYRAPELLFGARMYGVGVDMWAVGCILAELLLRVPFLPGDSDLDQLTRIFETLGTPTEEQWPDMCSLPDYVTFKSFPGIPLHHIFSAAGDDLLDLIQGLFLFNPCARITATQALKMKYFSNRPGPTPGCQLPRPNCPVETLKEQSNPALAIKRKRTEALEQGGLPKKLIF

Block 1
Target: Diamine acetyltransferase 1 (Homo sapiens, UniProt P21673)
Mode: inhibitor
Concentration: 10 µM
Relative to: control
Residues (P21673 1-171): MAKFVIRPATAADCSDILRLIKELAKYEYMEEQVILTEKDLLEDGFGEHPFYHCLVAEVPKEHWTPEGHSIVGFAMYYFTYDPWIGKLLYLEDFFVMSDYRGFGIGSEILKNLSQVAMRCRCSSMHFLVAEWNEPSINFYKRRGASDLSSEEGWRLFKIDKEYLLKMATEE
SMILES | remaining activity
CC1=CCC(O)(C(C)C)CC1 (stereo not shown) | 100%
O=C(OCc1ccccc1)c1ccccc1 | 88.9%
O=C(/C=C/c1ccc(O)c(O)c1)NCCc1ccc(O)cc1 | 103%
C=C(C)[C@@H]1CC=C(/C=N/O)CC1 | 101%
O=C(O)C[C@@H](O)C(=O)O | 108%
COc1cc(C=O)ccc1O | 100%
COc1ccc(-c2coc3cc(O[C@@H]4O[C@H](CO[C@@H]5OC[C@@H](O)[C@H](O)[C@H]5O)[C@@H](O)[C@H](O)[C@H]4O)c(OC)c(O)c3c2=O)cc1 | 102%
CS(C)(=O)=O | 89%

Block 2
Organism: Sarcocystis neurona
Effect on: parasite growth
Concentration: 10 µM
Time: 96 h
Setting: second screen
Relative to: untreated
SMILES | log2 fold change
CC(CCc1ccccc1)NCC(O)c1ccc(O)c(C(N)=O)c1 (stereo not shown) | 0.56
O=C(O)c1cc(=O)c2c(OCC(O)COc3cccc4oc(C(=O)O)cc(=O)c34)cccc2o1 | 0.39
CC(=O)O[C@]1(C(C)=O)CC[C@H]2[C@@H]3C[C@H](C)C4=CC(=O)CC[C@]4(C)[C@H]3CC[C@@]21C | 0.49
CCN(CC)CCOC(=O)c1ccc(N)cc1 | 0.07
Cc1c(OCC(F)(F)F)ccnc1C[S+]([O-])c1nc2ccccc2[nH]1 (stereo not shown) | 1.55
C[n+]1ccccc1/C=N/O | 0.38
OC(CCN1CCCC1)(c1ccccc1)C1CCCCC1 (stereo not shown) | 0.0456
C#C[C@]1(O)CC[C@H]2[C@@H]3[C@H](C)CC4=C(CCC(=O)C4)[C@H]3CC[C@@]21C | 0.28
O=C1[C@H](CC[C@H](O)c2ccc(F)cc2)[C@@H](c2ccc(O)cc2)N1c1ccc(F)cc1 | -0.19
Cc1cccc(C)c1NC(=O)C(C)N (stereo not shown) | 0.08

Block 3
Cell line: A-375
Concentration: 100 µM
Time: 36 h
SMILES | viability
CN/C(=N/CCSCc1nc[nH]c1C)NC#N | 110%
Cc1cc(=O)oc2cc(O)ccc12 | 88.8%
OCCN1C[C@H](O)[C@@H](O)[C@H](O)[C@H]1CO | 124%
CC[C@@]1(O)C(=O)OCc2c1cc1n(c2=O)Cc2cc3c(CN(C)C)c(O)ccc3nc2-1 | 23.2%
C=C1CC[C@@H]2[C@](C)(CO)[C@H](O)CC[C@@]2(C)[C@@H]1C/C=C1/C(=O)OC[C@H]1O | 4.15%
CCc1c(C)[nH]c2c1C(=O)C(CN1CCOCC1)CC2 (stereo not shown) | 102%
O=c1[nH]cnc2c1ncn2[C@H]1CC[C@@H](CO)O1 | 104%
Cn1nnc(-c2ccc(-c3ccc(N4C[C@H](CO)OC4=O)cc3F)cn2)n1 | 90.9%
Cc1cn[nH]c1 | 119%

Block 4
Structure (SMILES): C[C@@]1(Cc2ccc(C#N)cc2)C(=O)N(c2cc(Cl)cc(Cl)c2)c2ncc(C(=O)NC3(c4nc(C5CCC5)no4)CC3)n21
Concentration: 1 µM
target | test | remaining binding
STK35 (Homo sapiens, UniProt Q8TDR2) | cell-free assay, competition with immobilised ligand | 100%
CSNK1G1 (Homo sapiens, UniProt Q9HCP0) | cell-free assay, competition with immobilised ligand | 92%
PNCK (Homo sapiens, UniProt Q6P2M8) | cell-free assay, competition with immobilised ligand | 65%
FLT3 (Homo sapiens, UniProt P36888, N841I) | cell-free assay, competition with immobilised ligand | 89%
CSNK1G2 (Homo sapiens, UniProt P78368) | cell-free assay, competition with immobilised ligand | 91%
FES (Homo sapiens, UniProt P07332) | cell-free assay, competition with immobilised ligand | 100%
CSF1R (Homo sapiens, UniProt P07333) | cell-free assay, competition with immobilised ligand | 100%
RET (Homo sapiens, UniProt P07949, V804M) | cell-free assay, competition with immobilised ligand | 100%
PRKACA (Homo sapiens, UniProt P17612) | cell-free assay, competition with immobilised ligand | 100%
LATS1 (Homo sapiens, UniProt O95835) | cell-free assay, competition with immobilised ligand | 96%
CDK7 (Homo sapiens, UniProt P50613) | cell-free assay, competition with immobilised ligand | 100%
PTK6 (Homo sapiens, UniProt Q13882) | cell-free assay, competition with immobilised ligand | 100%
EGFR (Homo sapiens, UniProt P00533, G719C) | cell-free assay, competition with immobilised ligand | 100%
PIM1 (Homo sapiens, UniProt P11309) | cell-free assay, competition with immobilised ligand | 100%
ACVR2B (Homo sapiens, UniProt Q13705) | cell-free assay, competition with immobilised ligand | 100%
PIK3CA (Homo sapiens, UniProt P42336, H1047L) | cell-free assay, competition with immobilised ligand | 96%
Tyrosine-protein kinase JAK1, JH2 (JAK1, Homo sapiens, UniProt P23458) | cell-free assay, competition with immobilised ligand | 100%
MAP3K5 (Homo sapiens, UniProt Q99683) | cell-free assay, competition with immobilised ligand | 100%
STK17B (Homo sapiens, UniProt O94768) | cell-free assay, competition with immobilised ligand | 100%
GRK2 (Homo sapiens, UniProt P25098) | cell-free assay, competition with immobilised ligand | 100%
Tyrosine-protein kinase ABL1, phosphorylated (ABL1, Homo sapiens, UniProt P00519, F317I) | binding | 96%

Other studies, line by line
SMILES | test | measurement | value
CCOC(=O)[C@@H]1CSCC(=O)N[C@H](CC)C(=O)N(CC(C)C)CC(=O)N[C@@H](CC(C)C)C(=O)N(C)[C@H](C)C(=O)N(C)[C@@H](C)C(=O)N[C@@H](CC(C)C)C(=O)N(C)[C@H](C)C(=O)N[C@@H](CC(C)C)C(=O)N1C | PRP-column chromatography | log k' (60) | 0.658

Repeated from above (block 4):
target | test | remaining binding
FLT3 (Homo sapiens, UniProt P36888, N841I) | cell-free assay, competition with immobilised ligand | 89%
CSNK1G2 (Homo sapiens, UniProt P78368) | cell-free assay, competition with immobilised ligand | 91%
FES (Homo sapiens, UniProt P07332) | cell-free assay, competition with immobilised ligand | 100%
